Assay results of several laboratories.
Numbered parts are unrelated; each lists some results of a single study.

Study 1
Target: Histone acetyltransferase KAT6A, both winged helices, GST fusion (KAT6A, Homo sapiens, UniProt Q92794, residues 1-181)
Method: protein binding microarray
Form: double-stranded DNA, one strand shown
Medium: in vitro
Tested at: not given
Setting: 8-mer, flanks averaged, mean of 2 arrays, mostly near background
Baseline: not given
Reading: higher = stronger binding
Quantity: E-score
Construct (chain): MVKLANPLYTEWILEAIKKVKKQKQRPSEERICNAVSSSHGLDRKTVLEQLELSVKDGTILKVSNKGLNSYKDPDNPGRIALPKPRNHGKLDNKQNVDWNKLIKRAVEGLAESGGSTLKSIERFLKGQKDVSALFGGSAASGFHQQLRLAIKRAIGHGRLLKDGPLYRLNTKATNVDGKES
ATATGGAT: -0.16
ACGTCTCC: -0.0378
ATCGGTAC: 0.0483
CTGCGGCC: 0.213
AGCCTGGA: -0.15
CTCATTCC: 0.0129

Study 2
Target: Interferon regulatory factor 5, full length, phosphomimetic (IRF5, Homo sapiens, UniProt Q13568-2, residues 1-514, K96S/S451D/S453D/S456D/S462D)
Method: protein-binding microarray
Form: double-stranded DNA, one strand shown
Medium: in vitro
Tested at: 250 nM
Setting: 60-bp whole probe
With: salmon DNA 0.4 mg/ml
Baseline: random background probes
Reading: higher = stronger binding
Quantity: log fluorescence
All sequences stand within: GCCTAGCAC … GTCTTGATTCGCTTGACGCTGCTG
TTAGGTTTCGACTTTCGGTTCGTGCTA: 10.4 z-score
GACGAATTGAGTATCGAGACGTGCTAG: 2.05 z-score
GACGAACTGGGGACCGGAGACGTGCTA: -0.482 z-score
TCACCTCTGTCATTTTCACTGTGCTAG: 1.85 z-score
TTAGGCCTCGGTTTCGGTTAGTGCTAG: 8.09 z-score
GTAGGTCTCGGTTTCGGTTAGTGCTAG: 8.46 z-score
TGTTCTTTTCTGTTGTCTGTGTGCTAG: 2.62 z-score

Study 3
Target: Sal-like protein 4, full length isoform A (SALL4, Homo sapiens, UniProt Q9UJQ4, residues 1-1053)
Chain of UniProt Q9UJQ4 (whole entry, looked up): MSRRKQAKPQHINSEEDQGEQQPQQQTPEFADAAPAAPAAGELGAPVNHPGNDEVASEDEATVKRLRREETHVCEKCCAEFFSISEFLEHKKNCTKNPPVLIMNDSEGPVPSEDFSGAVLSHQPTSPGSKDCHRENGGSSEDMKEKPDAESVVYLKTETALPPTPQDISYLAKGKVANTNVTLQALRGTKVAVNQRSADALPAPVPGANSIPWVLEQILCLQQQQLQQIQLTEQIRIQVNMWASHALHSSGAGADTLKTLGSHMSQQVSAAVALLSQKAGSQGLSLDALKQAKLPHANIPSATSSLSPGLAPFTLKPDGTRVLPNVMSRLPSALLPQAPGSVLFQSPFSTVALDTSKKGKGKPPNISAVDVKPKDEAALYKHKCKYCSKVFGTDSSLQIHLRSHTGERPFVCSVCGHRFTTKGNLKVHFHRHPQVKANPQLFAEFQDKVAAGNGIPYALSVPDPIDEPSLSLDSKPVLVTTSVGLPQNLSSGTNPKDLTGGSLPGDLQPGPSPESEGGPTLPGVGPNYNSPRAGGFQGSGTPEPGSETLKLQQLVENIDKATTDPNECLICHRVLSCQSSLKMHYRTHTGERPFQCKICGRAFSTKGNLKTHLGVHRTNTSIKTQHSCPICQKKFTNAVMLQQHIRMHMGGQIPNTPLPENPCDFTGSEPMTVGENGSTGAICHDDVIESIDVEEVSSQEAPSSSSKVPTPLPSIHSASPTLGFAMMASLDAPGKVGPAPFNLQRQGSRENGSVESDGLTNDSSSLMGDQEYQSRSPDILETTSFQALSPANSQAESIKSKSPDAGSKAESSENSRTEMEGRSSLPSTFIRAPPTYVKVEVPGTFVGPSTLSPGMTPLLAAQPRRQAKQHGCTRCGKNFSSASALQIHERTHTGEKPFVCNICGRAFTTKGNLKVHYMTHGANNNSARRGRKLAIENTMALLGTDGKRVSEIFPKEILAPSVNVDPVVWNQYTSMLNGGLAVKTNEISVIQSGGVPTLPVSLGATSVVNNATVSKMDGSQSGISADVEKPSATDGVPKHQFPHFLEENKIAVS
Method: universal PBM
Form: double-stranded DNA, one strand shown
Medium: in vitro
Tested at: 600 nM
Setting: 8-mer, flanks averaged, mean of replicates
Reading: higher = stronger binding
Quantity: E-score
CGACGGAG: -0.129
TCCCAAAA: 0.117
GTATCCTA: 0.00524
GAGTGGGC: -0.199
CAATTGGG: -0.155

Other studies, line by line
PhoQ, residues 284 288 289 292 302 303 SVTLVV
fold induction (PhoP, residues 12 14 15 18 19 LHATL (Escherichia coli, UniProt P23836); Sort-seq, item: YFP reporter; E. coli; PhoQ-PhoP variant library, with: 10 µM Mg2+; baseline: high Mg2+ state, higher = stronger signaling): 2.82

Excerpt of the above (study 2):
TTAGGCCTCGGTTTCGGTTAGTGCTAG: 8.09 z-score
GTAGGTCTCGGTTTCGGTTAGTGCTAG: 8.46 z-score
TGTTCTTTTCTGTTGTCTGTGTGCTAG: 2.62 z-score
